Measured values of several laboratories.
Each numbered part is a random draw from the data of one study; scales do not carry over between parts.

Study 1 — method: RNA Bind-n-Seq; form: RNA; matrix: in vitro; concentration: 200 nM; notes: whole 134-nt RNA, ends assumed; together with: 150 mM KCl; baseline: input library; reading: higher = stronger binding
Target: Fragile X messenger ribonucleoprotein 1, C-terminal low-complexity region (Fmr1, Mus musculus, UniProt P35922)
Shared flanks, not repeated: GGGAGUUCUACAGUCCGACGAUC … UGGAAUUCUCGGGUGUCAAGG
Oligonucleotide | log2 enrichment
UAACUUUAGAGGAGGAUCUGAUGGAUAUGGCAGUGGACGUGGAUUUGGGGAUGGCUAUAAUGGGUAUGGAGGAGGACCUGGAGGUUGCAA | 0.0795
UGGCCCUGGUGGCAUGCGGGGAGGAAGAGGUGGCCUCAUGGAUCGUGGUGGUCCCGGUGGAAUGUUCAGAGGUGGCCGUGGUGGAGGCAG | 0.186
UCCUGUGCUACACAUCGUAUGUACCGAAUCGGGGAAAAAAAGGGGUGGGGAAAAAGGGGAAAGUAUUAUGUUACGCCGUUCGGAUCUGCA | 0.645
UCCUGUGCUACACAUCGUAUGUACCGAAUCGGGGUUUUUGGGGAAAAAGGGGUUUGGGGAAAGUAUUAUGUUACGCCGUUCGGAUCUGCA | 0.792
CACAGACAACACGCACCCACACAGACACAGAGGGAAGGGGUUGGGAUGGGGACAGUGUGCACAGCAGGGCGGGGUAGGACCCCAGCCCCU | 1.22
UCCUGUGCUACACAUCGUAUGUACCGAAUCGGAAAAAAAGGUUUUUUUGGUUUUUUUGGAAAGUAUUAUGUUACGCCGUUCGGAUCUGCA | -0.741
CACAGACAACACGCACCCACACAGACACAGAGGGAAGGGGUUGGGAUGGGGACAGGGUGCACAGCAGGGCGGGGUAGGUCCCCAGCCCCU | 1.32
UCAAGUCCUGUGCUACACAUCGUAUGUACCGAAUCGGCCCCGGCCCCGGCCCCGGAAAGUAUUAUGUUACGCCGUUCGGAUCUGCACUUC | -0.326
UCCUCAAGUCCUGUGCUACACAUCGUAUGUACCGAAUCGGUGGGGUGGUGGGAAAGUAUUAUGUUACGCCGUUCGGAUCUGCACUUCCAG | 0.543

Study 2 — method: RNA Bind-n-Seq; form: RNA; matrix: in vitro; concentration: 365 nM; baseline: no-protein control; reading: higher = stronger binding
Target: RNA binding protein fox-1 homolog 2, RRM domain, GST-SBP tag (RBFOX2, Homo sapiens, UniProt O43251-10, residues 100-194)
Notes: natural RNA segment, single round, ends assumed
Shared flanks, not repeated: GGGAGUUCUACAGUCCGACGAUC … UGGAAUUCUCGGGUGCCAA
Construct (chain): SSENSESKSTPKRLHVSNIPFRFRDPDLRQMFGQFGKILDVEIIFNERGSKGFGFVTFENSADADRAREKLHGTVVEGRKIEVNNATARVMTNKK
Oligonucleotide | RBNS enrichment (R)
GUCCUUCAUUUGGCCAGCUAACAUUCUGUCGAGCACCUGCAUUGUGCUGGAUUCAUGCUUCCAGAUGUGAGAUGUGUGUUCUAAUCUGACAGUGUGUUUUGUAAUCUGUC | 0.957
AUUCCACCACAAAAAGAGACCCUGAAUAAGAAGAGCAGUUUUCCUGUGCAUAUAGAGGGUGUGUCAAAGGUGAGCUUUUUGGGGACCGGGAAAAACAAAGUUGCCUGAUU | 3.95
CCAAGGGUCCCUGUGUGUGUGUAUGUGUGUGCAUGUGUGCGUGUCUCCAUGUGCGUCCAUAUUUAACAUGUAAAAAUGUCCCCCCCGCUCCGUCCCCCAAACAUGUUGUA | 0.349
GAGAGACUAAGGGCACUUCCUGAGGUUCAUUACCACCUGGGGCAGAAGGACAGGGAGACAGCAACCAUCGCCUGACCACGCCGACCACAGGGCCUUGAAUCCUUUUUUGU | 0.813
CAAGGCCAGUCUGAACCUGAGGUUGCUUUAUCCUAAAAGUUUUAACCUCAGGUUCCAAAUUCAGUAAAUUUUGGAAACAGUACAGCUAUUUCUCAUCAAUUCUCUAUCAU | 0.371
UUUCAUGAGCAACUCAUUCCUAGAGUUCAUUGUUUGCAUGGGUUUCUCACAAGCGUCCUUCCUCAUAGGAAGGCUCAUCAACUGAAUUUAGUGACAUGUACACAGUAGAU | 0.51
UUUAAGAGAGAGUCUCUGGCAAGACCCCCCUCAUCAGUUCUAAUCAUUUUAGAAGUAGACAGAAAAAAAUAUCUAAGCUCAGGUAAUACUGAAAAAGCCAAAAUGUUUUG | 0.425
AGUUCUGCAUUUAAAAUAUAUUUUUUCUUUAUAGGAAUUGAUGUAUACCAUGAAGUCAUUGUCAGUUGUAGUAGCUCUGAUGUUGAAUGAGAUAUCAUGUUUUAGCAUUC | 0.866

Study 3 — method: protein binding microarray; form: double-stranded DNA, one strand shown; matrix: in vitro; concentration: not given; baseline: not given; reading: higher = stronger binding
Target: Histone acetyltransferase KAT6A, winged helix 2, GST fusion (KAT6A, Homo sapiens, UniProt Q92794, residues 85-181)
Notes: 8-mer, flanks averaged, mean of 2 arrays, mostly near background
Residues (chain): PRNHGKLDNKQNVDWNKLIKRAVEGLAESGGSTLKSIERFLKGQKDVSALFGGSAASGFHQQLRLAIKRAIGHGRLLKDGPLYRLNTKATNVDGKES
Oligonucleotide | E-score
TCGCGTAA | -0.0223
TGGAAGAA | 0.168
CTCTGCCC | 0.11
AACGTATA | -0.212
AATCTCTG | -0.0612
GGGCATCA | 0.163
AGATACAC | -0.0191
AGACTGCT | -0.282
CATTGAAC | -0.0667
AATGCGGA | 0.0143
ACGTGCGA | -0.116
GAAGGTTA | 0.0035
GTCTCCTA | -0.187
CAATCCAG | 0.0913
AGCGATAC | 0.0122
CACGCTGA | 0.0855
GAAACGGC | 0.0685
CGTTTTTC | -0.0559
CGGGTCAG | 0.198
ATGGGCCC | -0.0663
AGCGGTAT | -0.0335
GGAATCCC | -0.0528
AAAGAGGG | -0.0162
AAGTCGCA | 0.0644
ACACATAC | -0.104

Study 4 — method: protein-binding microarray; form: double-stranded DNA, one strand shown; matrix: in vitro; concentration: 250 nM; notes: 60-bp whole probe; together with: salmon DNA 0.4 mg/ml; baseline: random background probes; reading: higher = stronger binding; shared flanks, not repeated: GCCTAGCAC … GTCTTGATTCGCTTGACGCTGCTG
Target: Interferon regulatory factor 5, full length, phosphomimetic (IRF5, Homo sapiens, UniProt Q13568-2, residues 1-514, K96S/S451D/S453D/S456D/S462D)
Oligonucleotide | log fluorescence [z-score]
GACGGACTGGGGACTGGGGAAGTGCTA | -0.717
TTAGATCTCAGTCTAGATTAGTGCTAG | 0.0572
TTAGGACAGGGTCTCGGTTAGTGCTAG | 0.00981
TCAACTCTCTGCTTGTGACTGTGCTAG | 0.0451
TTAGAGCTCAGTCTCGATTAGTGCTAG | 0.23
TTAGATCTCAGTCTCGATAAGTGCTAG | 0.759
TCAATTTTGGTTTTCTCACTGTGCTAG | 2.47
GACGAGTTCAGTTCCGAGACGTGCTAG | -0.0424
TTATAACTGGGGACTGGATTAGTGCTA | 0.259
TTACATTTCAGTCTCGATTAGTGCTAG | 3.51
TCAGTTTTCACTTTTCCACTGTGCTAG | 3.62
CTAGATTTCGGGTTTCGATTAGTGCTA | 8.22
GACGGTATTGGGACTGGGGACGTGCTA | -0.305
TTAGATATCAGACTGGCTTAGTGCTAG | 0.236
GACGGTCTCGGTCCCGGGACGTGCTAG | -0.00837
TTAGAACTGATTATCGATTAGTGCTAG | 5.31
TCAGCTCTGCGGTTCAGACTGTGCTAG | -0.315
ACCCGAGACACCGCCCCTTTGTGCTAG | -0.328
TAAATTTTCACGGTGGGTTCGTGCTAG | 0.813

Repeated from above (study 3):
Oligonucleotide | E-score
AACGTATA | -0.212
AATCTCTG | -0.0612
GGGCATCA | 0.163
AGATACAC | -0.0191
AGACTGCT | -0.282
